# Results gathered from unrelated publications.
# Numbered parts are unrelated; each lists some results of a single study. Substitutions count along the parent as printed.

# Sample 1
# Target: CCNB1, cyclin fold, Cln2 fusion (human)
# Technique: yeast growth competition, sequencing
# Medium: yeast
# Notes: weak parent motif
# Reference: not given
# Reading: higher = stronger binding
# Starting sequence: CDAN1 docking peptide (human); RGARSQLFPPTEA
Variant,normalised enrichment score
T11A,9.91e-05
Q6A,-0.183
P10A,0.385
R1A,0.0609
L7A,-0.0111
S5A,0.401

# Sample 2
# Target: RING finger protein unkempt homolog, zinc fingers 1-6, GST-SBP tag (UNK, Homo sapiens, UniProt Q9C0B0, residues 30-357)
# Technique: RNA Bind-n-Seq
# Molecule type: RNA
# Medium: in vitro
# Concentration: not given
# Notes: RNA with constant flanks, human and mouse sites, ends assumed
# Reference: input RNA pool
# Reading: higher = stronger binding
# Shared flanks, not repeated: GGGAGUUCUACAGUCCGACGAUC … CAACAGAGGAUUGAGCAUCA
# Construct (chain): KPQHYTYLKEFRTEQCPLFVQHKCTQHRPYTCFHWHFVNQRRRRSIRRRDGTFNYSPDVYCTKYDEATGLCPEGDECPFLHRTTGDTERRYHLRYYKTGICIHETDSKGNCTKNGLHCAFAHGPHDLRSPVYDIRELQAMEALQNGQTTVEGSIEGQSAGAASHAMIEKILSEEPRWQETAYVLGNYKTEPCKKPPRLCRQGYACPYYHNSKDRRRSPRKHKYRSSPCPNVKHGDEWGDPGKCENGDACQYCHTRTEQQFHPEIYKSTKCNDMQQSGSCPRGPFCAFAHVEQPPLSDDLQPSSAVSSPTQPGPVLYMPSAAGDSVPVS
Oligonucleotide,bound/input enrichment [ratio]
GAUACCAACUAUGCCUGGCCCACCGCAGAGAUUGCAGUCAUGGGAGCAAAGGGCGCUGUGGAGAUCAUCUUCAAAGGGCAUGAGAAUGUGGAAGCUGCUCAGGCAGAGUACAUCGAGAAG,0.128
CUGUUUUGGAACAACACAUUUUUGUAAUGCUUGUCAUGAUGAUUUUCAAAGAAUGACUAGCAUUCCUAAGGAAGAACUACCACACUGUCCUGCAGGUCCCAAAGGCAAGCAGUUAGAAGG,0.451
UUUACUGUUUUGGGGAGCACAGCCAGAGAGAGGGCUAAACACUCAGGCGACUACUUUACUCUUUUAAGACAUCUUCUUAAUUACGCCUACAACAGUAACAUUAAUGUGCCCAAUGCUGAA,0.431
AGAGCAUCUCUCACAUAUUAAAGAAAGUGUUGAAGAUAAGCUGGAAUUGAGACGGAAACAAUUUCACGUUCUUCUUAGUACCAUCCAUGAACUUCAACAGACAUUGGAGAGUAAGUGAAA,0.174
GCUCUGCCCCCAAACCUCACGAGUGAGCCCAUUCCUGCUGGGGGCUGUACUUUCAGUGGUAUUUUCCCAACAUUAACCUCUCCACUUUAACCUCUUCUAAAAUACCCAACCAAAAGAUCA,0.421
GCUGAGUCUUCAGGGAAAUGGAAUGGUCUACAUACUCCUGUCAGUGUGCAGUCGAGACUUAACCUGAGUAUAGAGGUCCCGUCACCUUCCCAGCUGGAUCAGUCUGUUUUAGAAGCACUU,0.0968
GAUAUAGACGGGGGCUUCGUGCACUCGGACGGUGCCAUCUCCUGCCACGACAUGUUUGAUUUUCUUCAUCUCACAGGAGGGGGCUAUGCAAAGAUCUGCAAACCCCUCCAUGAACUGAUC,0.156
AAUUUUCCUUUCAUAUAAAAACUGAUCUCCCCUCCUCCCAUAAAUAUUUUUACUUCAAGGACUAGGACCAGUUUGUUUUGGGCCCUUAUGUGAAAAUUUGUCUCGUUUAAGAGGCAUCUU,0.245
UUUCCAAAGCAGCCAGGGACAUCAGGCGCUUACCCUCUUACUUCACCCCCUACAUCCUAUCACAGCACAGUUAAUCAGUCCCCCUCUAUGAUGCACACACAGUCUCCAGGAAAUCUGCAU,0.537
AGUCUGCAUGCUAUGGAGUCCACCAGAGAGUCACUGAAAGCGGAGCUAGGAACGGAUUUGCUUUCUCAACUCAGUCUGGAAGAUCAGAAAAGAGUCGACGCUCUGAAUGAUGAAAUCCGU,0.0864
GAGAUCGAUUGCACCAUGCUCACCCCUGAGCCAGUUUUAAAGACCUCUGGCCAUGUAGACAAAUUUGCUGACUUCAUGGUGAAAGACGUAAAAAAUGGAGAAUGUUUUCGUGCUGACCAU,0.154

# Sample 3
# Molecule: B1 (TRIM48 RING domain)
# Technique: yeast two-hybrid
# Medium: yeast
# Notes: mostly zero background
# Reference: not given
# Reading: higher = stronger interaction
# B1: TRIM48 RING domain (UniProt Q8IWZ4); chain ISQVFQRELTCPICMNYFIDPVTIDCGHSFCRPCFYLNWQDIPILTQCFECIKTIQQRNLKT
target,lacZ reporter activity
UBE2J1 UBC core domain (UniProt Q9Y385),0
UBE2L3 UBC core domain (UniProt P68036),0
UBE2M UBC core domain (UniProt P61081),0
UBE2I UBC core domain (UniProt P63279),0
UBE2O UBC core domain (UniProt Q9C0C9),0
UBE2T UBC core domain (UniProt Q9NPD8),0
UBE2J2 UBC core domain (UniProt Q8N2K1),0
UBE2R2 UBC core domain (UniProt Q712K3),0
UBE2D1 UBC core domain (UniProt P51668),0
UBE2Q1 UBC core domain (UniProt Q7Z7E8),0
BIRC6 UBC core domain (UniProt Q9NR09),0
UBE2S UBC core domain (UniProt Q16763),0
UBE2G1 UBC core domain (UniProt P62253),0
UBE2B UBC core domain (UniProt P63146),0
UBE2E3 UBC core domain (UniProt Q969T4),0
UBE2Z UBC core domain (UniProt Q9H832),0

# Sample 4
# Target: Ras GTPase-activating protein-binding protein 1, full length (G3BP1, Homo sapiens, UniProt Q13283)
# Technique: RNA Bind-n-Seq
# Molecule type: RNA
# Medium: in vitro
# Concentration: 200 nM
# Notes: whole 134-nt RNA, ends assumed
# With: 150 mM LiCl
# Reference: input library
# Reading: higher = stronger binding
# All molecules: 7-deaza-guanosine replaces G
# Shared flanks, not repeated: GGGAGUUCUACAGUCCGACGAUC … UGGAAUUCUCGGGUGUCAAGG
Oligonucleotide,log2 enrichment
UCUUGUAUGACUUAACCCCUGUUUCUAAUACAGGGGCCGCUCUCCUCAGCCUCCUGCUGAAGAGGAUGAAGAUGACUUUGAUGAUACCCU,-0.28
CCUCAAGUCCUGUGCUACACAUCGUAUGUACCGAAUCGGGUGGGGUGGUGGGGAAAGUAUUAUGUUACGCCGUUCGGAUCUGCACUUCCA,-0.0138
UAACUUUAGAGGAGGAUCUGAUGGAUAUGGCAGUGGACGUGGAUUUGGGGAUGGCUAUAAUGGGCAUGGAGGAGGACCUGGAGGUGGCAA,0.051
CACAGACAACACGCACCCACACAGACACAGAGGGAAAAAGUUGGGAUGGGGACAGGGUGCACAGCAGGGCGGGGUAGGACCCCAGCCCCU,-1.51
GUCCUGUGCUACACAUCGUAUGUACCGAAUCGGUUUUUUGGUUUUUUGGGUUUUUUGGGAAAGUAUUAUGUUACGCCGUUCGGAUCUGCA,-0.827
ACUGAGGUACUGCCCUCCCCUGCCCCCUACCCUCUCCCUUGUCCCUCUACCCCGUUCCUCCCCUUCCCUCCAUUCCCUUUCCCCAACCUG,-0.615
UCCUGUGCUACACAUCGUAUGUACCGAAUCGGCCCCCCCGGCCCCCCCGGCCCCCCCGGAAAGUAUUAUGUUACGCCGUUCGGAUCUGCA,0.394
UAACUUUAGAGGAGGAUCUGAUGGAUAUGGCAGUGGACUUGGAUUUGGGGAUGGCUAUAAUGGGUAUGGAGGAGGACCUGGAGGUGGCAA,-0.287
CCUGUGCUACACAUCGUAUGUACCGAAUCGGGGAAAAAAAGGGAAAAAAAGGAAAAAAAGGAAAGUAUUAUGUUACGCCGUUCGGAUCUG,0.329
UGGCUGGCUGUGGCCUCACAGCUGAGGACUGCAAGGACCUUGCCUUUGGGCUGAGAGCCAACCAGACCCUGACCGAGCUGGACCUGAGCU,-2.6
ACCAUGCAGGUGGGCAUCUUUGGGAAGUGGGGCAAGGGGGGGAUAGGGAGGGGGGUAACAGUUUGGGAACAGGUGGUCCCAGGUCGUUUC,0.126
